Published values from different studies.
A part holds a random share of what one study measured. Changes are numbered by the printed parent chain.

Study 1 — target: CCND3, cyclin fold, Cln2 fusion (human); method: yeast growth competition, sequencing; sample: yeast; setting: weak parent motif; relative to: not given; direction: higher = stronger binding
Parent: BRCA2 docking peptide (human); PSIKRNLLNEFDR; partner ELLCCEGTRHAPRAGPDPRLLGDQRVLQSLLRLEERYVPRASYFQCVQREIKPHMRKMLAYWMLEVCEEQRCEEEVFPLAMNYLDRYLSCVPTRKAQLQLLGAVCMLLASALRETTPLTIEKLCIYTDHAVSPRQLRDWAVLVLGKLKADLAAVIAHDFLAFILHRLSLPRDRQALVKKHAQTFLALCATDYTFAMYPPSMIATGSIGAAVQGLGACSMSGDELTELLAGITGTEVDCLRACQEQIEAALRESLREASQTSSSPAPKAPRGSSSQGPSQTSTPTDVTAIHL
| Change | normalised enrichment score |
| --- | --- |
| L8K | 0.0619 |
| S2W | 0.049 |
| E10Y | 0.0161 |
| N6W | 0.0862 |
| I3Q | 0.0112 |
| R5K F11L | -0.467 |
| S2D | 0.106 |
| R5Q | 0.131 |
| P1L | -0.0162 |
| L7H | 0.0681 |
| I3T | -0.0104 |
| K4E | 0.0864 |
| R5V | 0.0684 |
| R5S | 0.12 |
| R5D | 0.192 |
| P1K | 0.127 |
| L8F | 0.167 |
| K4P | 0.133 |
| N6K | 0.166 |
| K4Y | 0.107 |
| L8E | 0.0629 |
| S2R | 0.0689 |
| P1G | 0.102 |
| S2K | 0.149 |
| D12H | 0.131 |

Study 2 — method: RNA Bind-n-Seq; form: RNA; sample: in vitro; tested at: 365 nM; relative to: no-protein control; direction: higher = stronger binding
Target: RNA binding protein fox-1 homolog 2, RRM domain, GST-SBP tag (RBFOX2, Homo sapiens, UniProt O43251-10, residues 100-194)
Setting: natural RNA segment, single round, ends assumed
Residues (chain): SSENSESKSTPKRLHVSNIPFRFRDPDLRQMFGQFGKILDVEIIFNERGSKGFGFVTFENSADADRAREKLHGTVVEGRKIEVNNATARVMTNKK
| Sequence | RBNS enrichment (R) |
| --- | --- |
| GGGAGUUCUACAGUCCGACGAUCAUCCCGACACAGCUCUGUGCCUUCAGCCCCAGGUCCACAGCGGGGACACUCGAGCCUCUGCUCUCACCUUGCCCUGUUUGGGUUUUUAUCAGCCGUGUCUGCAUUGGAGCUGGAAUUCUCGGGUGCCAA | 0.406 |
| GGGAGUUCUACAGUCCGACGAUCUCUUAACCAUAAGAAUUGAAAUGGUGAAGAAACAAGUAUACACUAGAGGCUCUUAAAAGUAUUGAAAGACAAUACUGCUGUUAUAUAGCAAGACAUAAACAGAUUAUAAAUGGAAUUCUCGGGUGCCAA | 1.52 |
| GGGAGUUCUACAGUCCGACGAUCGAGAAAAAUGAAACCCACAUGCCGCCAUUUUCCUGAAUCAAAUUCUGCAGUGGAAUGGAGAGGAAAAUACUUCUAGGCAAGCAGCUAGACUGGUGAAUUGGGGGAAAUAGUGGAAUUCUCGGGUGCCAA | 0.773 |
| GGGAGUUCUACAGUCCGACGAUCAGCGACUGAAUCUGCCACUCUCAGAAUAAGUUCCUUGCAUUUAUUCCAAAUAAUCUCGUUUACUCUCACCUGUUUAUGCAAAUUGUAUAAGGUUUCUUAUGCCCAAGCUUUGGAAUUCUCGGGUGCCAA | 0.905 |
| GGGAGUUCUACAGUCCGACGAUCAAGCCCAUUAAUGUGUAACAACAAGUUUAACAGUUAAGAGAGAGUAGCUGUUCACCUUGAAGACAGGCCUUAGUGUCACGCAGGUUUAUUACAGUGGCAUGAUGGUGACCUGGAAUUCUCGGGUGCCAA | 0.719 |
| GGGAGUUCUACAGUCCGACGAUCGGAAGGUGUGUGAGCAGUGCCAUGACUCUGCCCCUUACCUAAUCCCACAUCUCUCUAAUGAUAAGACAUUGGCUCGCCUCUGACCAGAGCCCCAGCACCAGAGAGCGGAAUGGAAUUCUCGGGUGCCAA | 0.948 |
| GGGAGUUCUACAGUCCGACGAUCAAGAUUCCAUGGAUUUACGGUGCCUGCAUUCCACAUAGCCAGAGACUUAGCUUUGUAUUUCAAAUGAAUUUGCAUAAAACCUGUUCAUCUUUAGCACCUUAUAGACAAAAUGGAAUUCUCGGGUGCCAA | 0.725 |
| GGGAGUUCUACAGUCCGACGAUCUUGUACAAGAUACACUGGAGAACAAAGGGAACUCAAGAUUCUUCCAGCCACAUGUCACCUGUAGGUAGAAGUAAACUCUGCAGUGCAGCUUCUGCUCUUGGCCCCUCUGGUGGAAUUCUCGGGUGCCAA | 0.316 |

Study 3 — method: RNA Bind-n-Seq; form: RNA; sample: in vitro; tested at: not given; relative to: input RNA pool; direction: higher = stronger binding
Target: RING finger protein unkempt homolog, zinc fingers 1-6, GST-SBP tag (UNK, Homo sapiens, UniProt Q9C0B0, residues 30-357)
Chain of UniProt Q9C0B0 (30-357, looked up): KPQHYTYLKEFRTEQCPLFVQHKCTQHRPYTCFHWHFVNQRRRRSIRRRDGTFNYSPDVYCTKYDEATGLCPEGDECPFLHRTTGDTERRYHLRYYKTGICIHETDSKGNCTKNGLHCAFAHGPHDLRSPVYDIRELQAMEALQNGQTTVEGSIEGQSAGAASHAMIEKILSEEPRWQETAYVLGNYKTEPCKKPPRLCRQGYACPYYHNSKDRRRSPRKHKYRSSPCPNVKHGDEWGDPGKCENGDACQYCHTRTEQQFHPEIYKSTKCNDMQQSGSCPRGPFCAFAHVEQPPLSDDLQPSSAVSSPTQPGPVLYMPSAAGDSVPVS
Setting: RNA with constant flanks, human-mouse chimeric sites, ends assumed
| Sequence | bound/input enrichment |
| --- | --- |
| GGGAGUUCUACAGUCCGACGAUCAGAGCCCAGGAUGUUGAUGCUACAAACCCAAAUUACGAAAUUAUGUGUAUGAUCAGAGACUUCAGAGGGAGCUUGGAUUACAGACCCCUAACAACAGCAGAUCCUAUUGAUGAACAUAGGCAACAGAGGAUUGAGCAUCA | 0.311 ratio |
| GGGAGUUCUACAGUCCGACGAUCCUGUGUGGCUUACUAAAUGAUUUGUGAAAGAAGUUUUUCCAAGCUGUAACCCAUGCUGUUAUUAUAGUUGCUGCAAAAUGUUCUUCCUGAUAUUGAUUUUAUUUGUUAACUGAAGGUCUCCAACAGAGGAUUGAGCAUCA | 0.741 ratio |
| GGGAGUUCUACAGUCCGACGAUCCUGAGGAUACCACUGAAGAGACCUUAAAAGGAGUCAUUGAGGGCUCUGUUCGUGCAAGAAUAGUCACUGAUCGGGAAACUGGUUCUUUCCAAAGGGUUGGUUUUGUAGACUUUAAUAGUGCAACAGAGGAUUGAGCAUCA | 0.886 ratio |
| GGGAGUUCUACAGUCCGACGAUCGUUGCCAGCUUCCGGUUCCGUUGGGCUCGGUUCUCUCCUGAGCUACGUGUCUCUACGCUCUCAAUCCGCCAUCCAACAAACAUGGAUGAUCAGGUAAUGCAGUUUGUGCCCAGCCGGCAGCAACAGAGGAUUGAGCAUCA | 0.12 ratio |
| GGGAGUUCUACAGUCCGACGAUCUAUUUUUGACAGCCACACAAUCUUGGCAUGUAUUAAGGAAAAAAAAAAUCCCUGUUGAAGUAGUUUUUCCACCUAUCAGCACUGAGUAAAUGCCAUAAAUCCAUUGAAAUGGUCUAAAUACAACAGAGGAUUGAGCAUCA | 0.151 ratio |
| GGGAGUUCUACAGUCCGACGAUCGGAUCUUUGGGACUGUUUUACUUAAUUGGUCAUUGGUAGCUUAACAAACAUGGAGAUAAGAUUAGAAAUCUUGACAUCAACAGGUAUUAAGCAGAAAAAACCAUGGCCACGUGUCUCCUGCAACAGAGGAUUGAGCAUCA | 0.154 ratio |
| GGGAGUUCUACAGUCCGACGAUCUACAUUUUAUUGUUGAGUUUCAUUUUCAUAUAUUCUUGUAGUGUCUGCUUGCCUGUGACUUCUGGUAAAAUAAAAUAAGCCUUUGAAAAUAUUUUAGCAUGGUAUUUAACAUUUUCUAAACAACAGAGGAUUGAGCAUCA | 1.84 ratio |
| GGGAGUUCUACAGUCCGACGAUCAAAGAGAAACUAAAGCAACUAAUAGAGAAGAGGAUUGGCAAAGAGAAAUUUCAUAGAAAACUAGGAUUUAUUAGCAAACAUGAGUUAUAUUCCAGAGCGUCUCAGAAACCCCAGCCAAACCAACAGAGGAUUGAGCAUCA | 15 ratio |

Study 4 — method: protein binding microarray; form: double-stranded DNA, one strand shown; sample: in vitro; tested at: not given; relative to: not given; direction: higher = stronger binding
Target: Histone acetyltransferase KAT6A, winged helix 2, GST fusion (KAT6A, Homo sapiens, UniProt Q92794, residues 85-181)
Setting: 8-mer, flanks averaged, mean of 2 arrays, mostly near background
Construct (chain): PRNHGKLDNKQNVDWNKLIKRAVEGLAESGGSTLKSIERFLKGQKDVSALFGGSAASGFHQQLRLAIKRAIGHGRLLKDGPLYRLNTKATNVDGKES
| Sequence | E-score |
| --- | --- |
| ATACCTAT | -0.0965 |
| AAAACTGC | 0.0979 |
| CCATCCTC | -0.0202 |
| CAAACGTC | -0.0699 |
| TATGATGA | -0.039 |
| AATTGGGG | -0.0641 |
| GTTGAGTA | -0.0541 |
| AAATAAAC | 0.0116 |
| AATAGGTC | -0.152 |
| GTAAGAAC | 0.107 |
| ACCCGGGC | 0.156 |
| CTCACCAC | 0.00915 |
| AACTGGAG | -0.0565 |
| TACCCGCA | 0.228 |
| AAGGTCAC | -0.046 |
| GCAAGGAC | 0.0202 |
| CATTGTGA | -0.0755 |
| ATCGCAAG | 0.142 |
| TCCCCGCA | 0.114 |
| CAACCAGC | 0.0928 |
| ATGCTATG | 0.0757 |
| CCTAATTA | -0.121 |
| ATATGGTG | -0.065 |
| TCCGGCGA | 0.205 |

Some of these lines once more (study 1):
| Change | normalised enrichment score |
| --- | --- |
| I3T | -0.0104 |
| R5D | 0.192 |
| S2K | 0.149 |
| R5V | 0.0684 |
| S2D | 0.106 |
| E10Y | 0.0161 |
| K4E | 0.0864 |
| D12H | 0.131 |
| L8F | 0.167 |
